Measured values from different studies.
Each line is one published result; not all experiments were run side by side.

CO[C@H]1C[C@@H]2CC[C@@H](C)[C@@](O)(O2)C(=O)C(=O)N2CCCC[C@H]2C(=O)O[C@H]([C@H](C)C[C@@H]2CC[C@@H](OC(=O)NCCOCCOCCOCCOCCOCCOCCOCCOCCC(=O)N3CCc4cc(Cn5nc(-c6ccc7oc(N)nc7c6)c6c(N)ncnc65)ccc4C3)[C@H](OC)C2)C[C@@H](O)[C@H](C)/C=C(\C)[C@@H](O)[C@@H](OC)C(=O)[C@H](C)C[C@H](C)/C=C/C=C/C=C/1C
Cmax (human, plasma; intravenous, 12 mg, cycle 1 day 1, arithmetic mean): 504 ng/mL

CCN1CCN(Cc2ccc(Nc3ncc(F)c(-c4cc(F)c5nc6n(c5c4)[C@H](C)CCC6)n3)nc2)CC1
Cmax (human, plasma; 100 mg single dose, mean): 107 ng/mL

O=C(O)CCC(=O)O.[2H]C([2H])([2H])Oc1cc(C)c2[nH]ccc2c1CN1CC[C@@H](C2CC2)C[C@H]1c1ccc(C(=O)O)cc1
Cmax (human, plasma; 125 mg twice daily, day 1, multiple ascending dose, geometric mean): 1710 ng/mL

O=C(COc1ccc(Cl)cc1)NC12CC(c3nnc([C@H]4C[C@@H](OC(F)(F)F)C4)o3)(C1)C2
Cmax (healthy human both sexes, plasma; oral, 200 mg once daily, day 1, mean): 2290 nM

Cl.[2H]C([2H])([2H])CC(=O)c1cnc(NC(=O)C2CC2)cc1Nc1cccc(-c2ncn(C([2H])([2H])[2H])n2)c1OC
Cmax (human, fed, multiple dose; oral, 60 mg once daily, tablet, day 1, geometric mean): 357 ng/mL

C=CC(=O)N(C)CCOc1c(N)ncnc1-c1cc(F)cc(NC(=O)c2ccc(C3CC3)cc2F)c1C
Cmax (human; oral, 30 mg single dose): 64.8 ng/mL

C[C@@H](Nc1cc(F)cc(F)c1)c1cc(C(=O)N(C)C)cc2c(=O)cc(N3CCOCC3)oc12
Cmax (human, dose-finding arm, plasma; oral, 120 mg twice daily, geometric least-squares mean, added: abiraterone 1000 mg): 982 ng/mL

CCn1cc(C(=O)N2CCOCC2)c(=O)c2cc(NC3Cc4ccccc4C3)cnc21
Cmax (human, fasted; oral suspension, 600 mg single dose, arithmetic mean): 809 ng/mL

CNC(=O)c1ccc(-c2cnc3ncc(Cc4ccc5ncccc5c4)n3n2)cc1F
Cmax (human mild hepatic impairment NCI; oral, 200 mg single dose, mean): 1910 ng/mL

COc1cc(N2CCC(N3CCN(C)CC3)CC2)ccc1Nc1ncnc(Nc2ccccc2S(=O)(=O)C(C)C)n1
Cmax (human, dose expansion arm, plasma; oral, 200 mg, day 28, mean): 1760 ng/mL

C[C@@H]1CCO[C@H]2Cn3cc(C(=O)NCc4ccc(F)cc4F)c(=O)c(O)c3C(=O)N12
Cmax (human, body weight 25 to <30 kg, plasma; oral, 22.4 mg, granules, steady state): 4090 ng/mL

COc1ncc(-c2nc3c(n2C(C)C)[C@H](c2ccc(Cl)cc2)N(c2cc(Cl)cn(C)c2=O)C3=O)c(OC)n1
Cmax (LC-MS/MS; human, plasma; oral, 30 mg, cycle 1 day 14, low-dose arm): 157 ng/mL
